Measured values collected from several papers.
Numbered parts are unrelated; each lists some results of a single study. “And” joins repeats or separate records; there may be more than shown.
Chain of UniProt Q15831 (whole entry, looked up): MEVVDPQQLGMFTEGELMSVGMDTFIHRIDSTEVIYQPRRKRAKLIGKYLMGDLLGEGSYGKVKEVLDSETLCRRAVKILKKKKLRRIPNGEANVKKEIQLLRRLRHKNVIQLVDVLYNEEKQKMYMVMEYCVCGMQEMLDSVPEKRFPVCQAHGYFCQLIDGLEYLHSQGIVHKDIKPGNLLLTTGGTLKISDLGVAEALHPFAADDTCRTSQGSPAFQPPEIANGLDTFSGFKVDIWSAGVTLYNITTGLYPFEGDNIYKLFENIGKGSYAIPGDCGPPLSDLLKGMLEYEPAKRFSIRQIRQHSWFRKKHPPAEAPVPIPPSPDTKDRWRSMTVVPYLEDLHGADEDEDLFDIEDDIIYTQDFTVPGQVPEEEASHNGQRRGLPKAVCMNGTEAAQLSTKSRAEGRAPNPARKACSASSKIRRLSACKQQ
Chain of UniProt Q9UL54 (whole entry, looked up): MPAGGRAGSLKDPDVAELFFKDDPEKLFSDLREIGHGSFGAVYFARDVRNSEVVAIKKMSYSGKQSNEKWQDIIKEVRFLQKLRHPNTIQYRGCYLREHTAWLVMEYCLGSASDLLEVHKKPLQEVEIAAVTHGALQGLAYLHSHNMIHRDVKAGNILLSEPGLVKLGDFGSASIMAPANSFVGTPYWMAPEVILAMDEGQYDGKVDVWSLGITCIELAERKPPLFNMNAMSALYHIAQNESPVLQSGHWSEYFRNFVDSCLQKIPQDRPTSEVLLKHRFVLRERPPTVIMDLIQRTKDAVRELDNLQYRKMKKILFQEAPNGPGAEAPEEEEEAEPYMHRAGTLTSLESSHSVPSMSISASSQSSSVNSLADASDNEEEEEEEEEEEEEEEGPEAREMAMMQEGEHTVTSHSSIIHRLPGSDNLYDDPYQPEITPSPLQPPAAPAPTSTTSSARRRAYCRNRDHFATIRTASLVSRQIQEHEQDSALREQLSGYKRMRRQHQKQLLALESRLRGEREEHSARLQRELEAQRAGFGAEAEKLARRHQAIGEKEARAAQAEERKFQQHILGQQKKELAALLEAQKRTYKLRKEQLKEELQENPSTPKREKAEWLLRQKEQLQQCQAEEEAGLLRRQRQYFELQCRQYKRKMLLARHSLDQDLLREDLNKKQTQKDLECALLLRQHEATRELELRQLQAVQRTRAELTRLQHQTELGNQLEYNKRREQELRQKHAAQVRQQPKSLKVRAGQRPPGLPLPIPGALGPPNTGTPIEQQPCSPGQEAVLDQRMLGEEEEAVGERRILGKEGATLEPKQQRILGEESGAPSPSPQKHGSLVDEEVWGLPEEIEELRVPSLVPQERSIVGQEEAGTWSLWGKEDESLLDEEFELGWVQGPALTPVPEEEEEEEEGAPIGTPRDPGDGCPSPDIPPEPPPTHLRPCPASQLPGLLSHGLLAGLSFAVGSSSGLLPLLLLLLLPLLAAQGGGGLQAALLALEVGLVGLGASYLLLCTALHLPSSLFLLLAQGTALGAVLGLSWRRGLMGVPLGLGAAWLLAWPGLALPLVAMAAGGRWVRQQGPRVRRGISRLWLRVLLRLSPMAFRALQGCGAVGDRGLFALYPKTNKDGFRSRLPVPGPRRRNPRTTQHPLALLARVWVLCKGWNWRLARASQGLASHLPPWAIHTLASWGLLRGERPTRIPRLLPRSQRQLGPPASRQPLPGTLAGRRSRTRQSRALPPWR
Chain of UniProt P29320 (whole entry, looked up): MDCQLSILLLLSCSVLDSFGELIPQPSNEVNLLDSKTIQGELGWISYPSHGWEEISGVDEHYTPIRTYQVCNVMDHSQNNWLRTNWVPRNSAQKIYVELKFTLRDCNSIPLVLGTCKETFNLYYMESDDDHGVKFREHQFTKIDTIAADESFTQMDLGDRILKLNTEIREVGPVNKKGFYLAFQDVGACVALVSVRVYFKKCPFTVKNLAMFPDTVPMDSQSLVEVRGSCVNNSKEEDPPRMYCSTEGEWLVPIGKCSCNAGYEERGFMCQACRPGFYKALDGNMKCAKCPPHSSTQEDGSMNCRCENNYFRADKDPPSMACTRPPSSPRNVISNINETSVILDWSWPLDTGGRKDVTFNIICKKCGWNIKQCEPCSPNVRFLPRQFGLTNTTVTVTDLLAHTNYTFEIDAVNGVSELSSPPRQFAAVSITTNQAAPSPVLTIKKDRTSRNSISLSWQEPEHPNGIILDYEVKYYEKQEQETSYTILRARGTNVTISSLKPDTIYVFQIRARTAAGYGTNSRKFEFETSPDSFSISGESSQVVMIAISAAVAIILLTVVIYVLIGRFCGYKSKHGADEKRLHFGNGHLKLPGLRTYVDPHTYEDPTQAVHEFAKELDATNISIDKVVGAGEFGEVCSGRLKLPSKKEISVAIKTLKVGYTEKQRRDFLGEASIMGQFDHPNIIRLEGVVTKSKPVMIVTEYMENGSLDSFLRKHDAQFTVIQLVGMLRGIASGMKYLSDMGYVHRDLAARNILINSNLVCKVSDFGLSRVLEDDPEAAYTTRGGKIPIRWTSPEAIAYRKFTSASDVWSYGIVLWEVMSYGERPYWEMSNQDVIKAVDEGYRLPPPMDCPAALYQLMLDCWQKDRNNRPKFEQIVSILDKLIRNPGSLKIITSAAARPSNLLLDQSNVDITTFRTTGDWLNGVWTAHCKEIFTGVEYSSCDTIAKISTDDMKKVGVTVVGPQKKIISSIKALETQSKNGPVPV
Chain of UniProt P49841 (whole entry, looked up): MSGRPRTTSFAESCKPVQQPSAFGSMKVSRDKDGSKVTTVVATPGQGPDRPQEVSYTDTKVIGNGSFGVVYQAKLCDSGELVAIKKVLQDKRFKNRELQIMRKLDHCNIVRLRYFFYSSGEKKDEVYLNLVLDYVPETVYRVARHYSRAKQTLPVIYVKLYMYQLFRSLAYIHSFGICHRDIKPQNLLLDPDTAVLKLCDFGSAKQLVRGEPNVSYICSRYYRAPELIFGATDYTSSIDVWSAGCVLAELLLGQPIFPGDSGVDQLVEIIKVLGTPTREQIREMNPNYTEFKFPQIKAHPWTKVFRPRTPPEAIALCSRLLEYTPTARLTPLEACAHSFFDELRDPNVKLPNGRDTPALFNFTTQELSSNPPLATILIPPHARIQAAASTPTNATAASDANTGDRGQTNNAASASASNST
Chain of UniProt Q15349 (whole entry, looked up): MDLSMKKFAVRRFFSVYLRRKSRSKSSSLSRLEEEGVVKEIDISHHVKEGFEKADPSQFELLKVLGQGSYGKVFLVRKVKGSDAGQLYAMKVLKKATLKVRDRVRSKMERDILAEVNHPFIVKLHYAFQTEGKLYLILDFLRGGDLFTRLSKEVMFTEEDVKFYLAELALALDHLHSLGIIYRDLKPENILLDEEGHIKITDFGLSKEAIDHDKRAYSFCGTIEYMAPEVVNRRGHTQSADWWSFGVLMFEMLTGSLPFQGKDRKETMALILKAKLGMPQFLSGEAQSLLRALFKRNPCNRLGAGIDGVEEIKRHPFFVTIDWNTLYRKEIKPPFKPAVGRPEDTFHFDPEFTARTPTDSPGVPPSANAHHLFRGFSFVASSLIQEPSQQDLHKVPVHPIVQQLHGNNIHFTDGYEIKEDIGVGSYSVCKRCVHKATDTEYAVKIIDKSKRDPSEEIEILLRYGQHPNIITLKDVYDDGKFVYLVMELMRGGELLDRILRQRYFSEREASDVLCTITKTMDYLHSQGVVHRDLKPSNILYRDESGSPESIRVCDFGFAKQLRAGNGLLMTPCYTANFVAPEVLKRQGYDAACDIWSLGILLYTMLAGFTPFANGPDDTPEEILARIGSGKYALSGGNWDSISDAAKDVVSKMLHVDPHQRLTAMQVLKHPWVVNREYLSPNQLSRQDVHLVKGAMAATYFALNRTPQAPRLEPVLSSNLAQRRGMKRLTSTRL
Chain of UniProt P52333 (whole entry, looked up): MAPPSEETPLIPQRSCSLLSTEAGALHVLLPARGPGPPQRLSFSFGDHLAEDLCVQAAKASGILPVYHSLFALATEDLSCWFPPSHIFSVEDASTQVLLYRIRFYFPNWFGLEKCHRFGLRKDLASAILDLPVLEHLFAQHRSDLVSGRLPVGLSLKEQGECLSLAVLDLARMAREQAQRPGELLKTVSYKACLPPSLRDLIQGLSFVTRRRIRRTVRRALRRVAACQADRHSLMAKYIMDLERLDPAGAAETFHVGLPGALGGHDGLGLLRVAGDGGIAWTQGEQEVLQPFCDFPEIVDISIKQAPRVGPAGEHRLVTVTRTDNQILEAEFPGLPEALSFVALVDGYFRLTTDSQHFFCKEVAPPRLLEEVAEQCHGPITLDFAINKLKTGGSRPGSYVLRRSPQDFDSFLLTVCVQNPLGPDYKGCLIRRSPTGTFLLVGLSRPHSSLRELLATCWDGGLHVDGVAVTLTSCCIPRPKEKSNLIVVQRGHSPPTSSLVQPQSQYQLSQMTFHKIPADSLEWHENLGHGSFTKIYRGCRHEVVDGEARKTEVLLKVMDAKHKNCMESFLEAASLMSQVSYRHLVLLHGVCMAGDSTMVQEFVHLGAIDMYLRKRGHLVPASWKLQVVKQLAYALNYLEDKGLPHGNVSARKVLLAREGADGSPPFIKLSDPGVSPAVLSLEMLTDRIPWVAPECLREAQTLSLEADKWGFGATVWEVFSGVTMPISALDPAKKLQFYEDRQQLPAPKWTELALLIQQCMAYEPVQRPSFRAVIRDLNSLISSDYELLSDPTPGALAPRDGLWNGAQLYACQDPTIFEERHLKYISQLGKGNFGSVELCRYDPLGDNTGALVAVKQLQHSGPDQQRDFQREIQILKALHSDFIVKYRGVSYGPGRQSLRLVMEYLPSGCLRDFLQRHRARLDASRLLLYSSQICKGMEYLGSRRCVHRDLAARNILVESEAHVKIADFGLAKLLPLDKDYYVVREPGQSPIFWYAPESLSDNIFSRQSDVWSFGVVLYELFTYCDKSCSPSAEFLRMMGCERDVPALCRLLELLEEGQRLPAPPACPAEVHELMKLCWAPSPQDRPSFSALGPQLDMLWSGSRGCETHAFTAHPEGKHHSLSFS

Block 1 — observed: cell-free assay; method: competition with immobilised ligand; tested at: 1 µM
SMILES: CS(=O)(=O)NCC[C@H](NC(=O)c1cncc2c1cnn2-c1ccc(F)cc1)c1ccnc(S(C)(=O)=O)c1
target	remaining binding [%]
MAPK11 (Homo sapiens, UniProt Q15759)	100
HCK (Homo sapiens, UniProt P08631)	100
STK11 (Homo sapiens, UniProt Q15831)	100

Block 2 — observed: enzyme activity; mode: inhibitor; tested at: 0.5 µM; relative to: control
SMILES: COc1cc2c(Nc3ccc(Br)cc3F)ncnc2cc1OCC1CCN(C)CC1
target	remaining activity [%]
GSK3B (Homo sapiens, UniProt P49841)	101
ACVR1B (Homo sapiens, UniProt P36896)	107
GRK7 (Homo sapiens, UniProt Q8WTQ7)	96.4
MAP3K5 (Homo sapiens, UniProt Q99683)	102
MAPK3 (Homo sapiens, UniProt P27361)	102
MAPKAPK2 (Homo sapiens, UniProt P49137)	99.5
TBK1 (Homo sapiens, UniProt Q9UHD2)	99.9
MAP3K14 (Homo sapiens, UniProt Q99558)	155
ARAF (Homo sapiens, UniProt P10398)	84
EPHA3 (Homo sapiens, UniProt P29320)	57.7
MERTK (Homo sapiens, UniProt Q12866)	47.9
TAOK2 (Homo sapiens, UniProt Q9UL54)	104
JAK3 (Homo sapiens, UniProt P52333)	96
NEK6 (Homo sapiens, UniProt Q9HC98)	96.9
ABL2 (Homo sapiens, UniProt P42684)	14
NEK1 (Homo sapiens, UniProt Q96PY6)	123
RPS6KA2 (Homo sapiens, UniProt Q15349)	85.9
CSNK1G2 (Homo sapiens, UniProt P78368)	98.5

Block 3 — cell line: mouse MPNST tumor cells; method: high-content immunofluorescence imaging; measured: nuclear SOX9; tested at: 10 µM; time: 12 h; notes: mean of 2 replicates; relative to: DMSO control; reading: higher = more nuclear SOX9
Structure (SMILES)	nuclear SOX9 intensity
CN(C)CCOC(=O)COc1ccc(Cl)cc1	93.2 % of DMSO
CC(=O)OCC(=O)NCCCOc1cccc(CN2CCCCC2)c1	94.2 % of DMSO
CCCC(=O)Nc1ncnc2c1ncn2[C@@H]1O[C@@H]2COP(=O)(O)O[C@H]2[C@H]1OC(=O)CCC	115 % of DMSO and 96 % of DMSO
CCOC(=O)c1csc(Nc2ccc(Cl)cc2)n1	103 % of DMSO

Block 4 — method: aptamer microarray, sandwich; molecule type: DNA with 2'F-ANA; medium: in vitro; tested at: 200 nM; with: Cy3 exosite-II aptamer, 400 nM; reading: higher = stronger binding; sequence: GGTTGGTGTGGTTGG
Target: Prothrombin, mature alpha-thrombin (F2, Homo sapiens, UniProt P00734)
Notes: whole 15-mer aptamer, many near background
Modification	mean fluorescence intensity
2'F-ANA at 1 2 3 5 6 7 8 9 10 13	70.1 a.u.
2'F-ANA at 1 3 4 5 7 8 9 12 13	81.1 a.u.
2'F-ANA at 2 3 4 7 10 13 14	198 a.u.
2'F-ANA at 3 4 5 7 8 9 10 11 13 14 15	94.5 a.u.
2'F-ANA at 1 6 10 11 12	64.6 a.u.
2'F-ANA at 5 6 9 11 13	69.1 a.u.
2'F-ANA at 3 6 10 13 14 15	300 a.u.
2'F-ANA at 5 7 10 11 13 14	56.1 a.u.

Block 5 — method: Phase 2a trial; species: idiopathic pulmonary fibrosis patients
Compound: CC(C)n1cnc(-c2ccc(F)cc2)c1-c1ncc(C(=O)Nc2ccc(N3CCN(C)CC3)cc2)[nH]1
assay	conditions	patients with adverse events
measured: oral herpes	oral, 60 mg once daily, grade 5 maximum intensity	0%
measured: back pain	30 mg once daily, grade 3 maximum intensity	0%
measured: muscular weakness	dose not given, grade 4 maximum intensity, all arms	0%
measured: infections and infestations	60 mg once daily, grade 4 maximum intensity	0%

Block 6 — species: human; medium: microsomes or S9; tested at: 2 µM; time: 0.5 h
SMILES	remaining compound
CC(=O)N(CC(=O)N1CCCN(c2ccc(-c3ccccc3)nn2)CC1)C(C)c1ccccc1 (stereo not shown)	3.75%
COc1cc(Cn2c(-c3nnc(C)o3)cc3ccccc32)cc(OC)c1	33.6%
COC(=O)Cn1c(=O)cc(C)c2c(OC)ccc(OC)c21	0.077%

Single results of other studies — cell line: HaCaT; tested at: 100 µM; time: 36 h
SMILES	viability
O=C(O)c1cc(=O)[nH]c(=O)[nH]1	93.6%
Cc1ccc(O)cc1	94.9%
CN1CCC(=C2c3ccccc3CCc3cccnc32)CC1	95.6%

Excerpt of the above (block 4):
Modification	mean fluorescence intensity
2'F-ANA at 2 3 4 7 10 13 14	198 a.u.
2'F-ANA at 3 4 5 7 8 9 10 11 13 14 15	94.5 a.u.
2'F-ANA at 1 6 10 11 12	64.6 a.u.
2'F-ANA at 5 6 9 11 13	69.1 a.u.
2'F-ANA at 3 6 10 13 14 15	300 a.u.
